Published values gathered from unrelated publications.
Protocols differ between the studies behind these lines.
Cell line: OVCAR-8

Compound	test	setting	scale	measurement	result
Cc1n[nH]c2nc(-c3ccc(Cl)cc3)c3c(NC(=O)c4ccccc4)nnc-3n12	SRB	10 µM, NCI60 single-dose screen	baseline: untreated	cell growth	106%
CCCN1CCN(c2ccc3[nH]c(-c4ccc5[nH]c(-c6ccc(C(F)(F)F)cc6)nc5c4)nc3c2)CC1	SRB	10 µM, 48 h		growth percent	-38%
CCN(CC)c1ccc(C=NNC(=O)CSc2nc3ccccc3c(=O)n2Cc2ccc(S(N)(=O)=O)cc2)c(O)c1	NCI five-dose screen			TGI	> 100 µM
Cc1cc(=O)[nH]n1-c1nc(-c2ccc(Cl)cc2)c2c(NC(=O)c3ccccc3)nnc-2[nH]1	SRB	10 µM, NCI60 single-dose screen	baseline: untreated	cell growth	77.3%
CCCN1CCN(c2ccc3[nH]c(-c4ccc5[nH]c(-c6cc(OC)c(OC)c(OC)c6)nc5c4)nc3c2)CC1	SRB	10 µM, 48 h		growth percent	75.5%
CSc1nc(-c2ccc(Cl)cc2)c2c(NC(=O)c3ccccc3)nnc-2[nH]1	SRB	10 µM, NCI60 single-dose screen	baseline: untreated	cell growth	98.8%
C#C[C@@]1(O)[C@@H](CO)O[C@@H](n2cc(F)c3c(N)ncnc32)[C@@H]1O	SRB	NCI-60 screen		TGI	3.69 µM
NNc1nc(-c2ccc(Cl)cc2)c2c(NC(=O)c3ccccc3)nnc-2[nH]1	SRB	10 µM, NCI60 single-dose screen	baseline: untreated	cell growth	106%
CCCCN1CCN(c2ccc3[nH]c(-c4ccc5[nH]c(-c6ccc(OCC)cc6)nc5c4)nc3c2)CC1	SRB	10 µM, 48 h		growth percent	70.1%
O=C1NC(=NCc2cccs2)S/C1=C\c1ccc2ncccc2c1	MTS	NCI60 panel		IC50	> 10 µM
CN1CCN(c2ccc3[nH]c(-c4ccc5[nH]c(-c6ccc(C(F)(F)F)cc6)nc5c4)nc3c2)CC1	SRB	10 µM, 48 h		growth percent	65.5%
S=C([S][Au-][P+](CCCCCC[P+]([Au-][S]C(=S)n1cccn1)(c1ccccc1)c1ccccc1)(c1ccccc1)c1ccccc1)n1cccn1	cell growth, NCI-60 screen	ovarian cancer		log10 TGI	> -4
Cn1cncc1C1=CN(c2ncnc3[nH]cnc23)CCS1		ovarian cancer		TGI	155 µM

Excerpt of the above:
Compound	test	setting	scale	measurement	result
CCCN1CCN(c2ccc3[nH]c(-c4ccc5[nH]c(-c6ccc(C(F)(F)F)cc6)nc5c4)nc3c2)CC1	SRB	10 µM, 48 h		growth percent	-38%
